Results pooled from the literature.
A part holds a random share of what one study measured. Substitutions count along the parent as printed.

Block 1
Target: Hepatocyte nuclear factor 3-alpha (Foxa1, Mus musculus, UniProt P35582, residues 1-468, full length assumed)
Method: EMSA with sequencing
Molecule type: double-stranded DNA, one strand shown
Sample: in vitro
Concentration: 10 and 20 nM
Notes: whole designed probe, mean of two concentrations, ends assumed
Baseline: negative control set to 0
Direction: higher = stronger binding
Constant ends, left off below: GTGAGCGGTGCCCATTGATGGGGAAC … TTTCACTGGGATCGTGGGGAC
Target sequence (chain): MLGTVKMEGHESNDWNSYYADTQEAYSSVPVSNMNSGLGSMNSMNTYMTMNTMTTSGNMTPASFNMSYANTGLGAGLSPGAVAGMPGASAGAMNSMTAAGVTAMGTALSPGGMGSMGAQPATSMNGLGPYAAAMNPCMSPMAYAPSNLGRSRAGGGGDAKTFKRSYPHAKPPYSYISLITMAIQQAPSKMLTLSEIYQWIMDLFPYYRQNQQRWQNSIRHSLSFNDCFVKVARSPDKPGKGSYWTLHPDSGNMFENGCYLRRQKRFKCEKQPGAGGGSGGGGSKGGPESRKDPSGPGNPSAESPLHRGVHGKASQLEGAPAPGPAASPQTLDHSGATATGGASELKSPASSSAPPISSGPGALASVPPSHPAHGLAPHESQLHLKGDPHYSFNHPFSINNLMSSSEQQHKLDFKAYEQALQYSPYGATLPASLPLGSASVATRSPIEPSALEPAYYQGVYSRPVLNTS
Strand	normalised bound fraction
ATCTTCCCCCTCTTCCTTGCCCCACCAGCTCACCTTCCCGGGTATCTGCAAATAAGTATTTATTTTCAAGCCGGCATTCGTTAACCCTCTTCACGCGCATACTGCTGTTTGCTCTGGATCTAACATGGTCCTTTGGCGACGCCAGGCTCCGGGAGAGCAAAGCACCGTGTCAGGGCCATGATCCGGGGTGGCC	0.199 ratio
GAGCTGCTTGCAATTGAGTTGTATGTATGCTTCCACTTAATACGTCCTGCCGAGCCTGTAAGCCAACACTTCCGGCCAGGAATCTGCCCTCTGTGTTTACCTACTCTCTTTTTATGTCTTATTCCCAGAATGACTGGGGACCAAAGGAATCCTTTGCAGGAGTTTTCTCCAGACAGACAGTTCCACATGCTAG	0.253 ratio
ATGTGCTAAAAATACAAGACTTGCTTACGCAGAGAGCCGGGAGCTATGTTCCAGTGAGGGTGGAAACAAAAGCCTCAGTATAAGACTGTCAGGTGTTTACACTTGCTCAAGGGTGTGGTATGTGGCAACACGAGGTTGCTGGACTCCACATGCTGAGGCTCAAAGTAGAAATCACTGATCTTATGTCACATAT	0.234 ratio
ATCCACGAACCTGGCCCTGTCTGGTAACCACAGTGAACCATCGCAAGATACAGCACTATGTGCCCAGTTGGGCTTAATGACTCACGGAAATGTGTCAACACTGGCACATCCTCAGGGACACGGAAGTGTACTTGTTTTTGGAGAGGGACTAGACCTTCATCCTTGAGGTGAAGAAGATTTTCTCTCCAGGGTG	0.0418 ratio
TAGCAGGTCACTGCCAGTCACGAGGGCAGAGAGACCCAAAGGATCAGAGAACAGCTCTGAGCAGGTCAAGGGCAGTGCCAGAAGGAAAGCCTTTGTTTACAGAGGGAAAGATCCTGCACCTTGAAGTGAGGCATTAAAGAGTAGAGGGGCTTTGCACCTGCATCCTAAGCCTCTTGGTTCACCACTAAGCCGC	0.395 ratio
GAGCAGGTGGGATAGGGCACCAGCTTTGTGATTATGCTGGTTTGTTTACAGTTGTGTCCTGCCACTGTTAATAATGGCAAATGAAACAAACAATGTAAACACAGACTTCTTTTTGTTTTTCATAATCTGAGAAGGTGGTTAGTTCTTAGGTCAGGTCAGTTTCACCAATCTAAGGAGTTTTTTTCCTATTTTT	0.473 ratio
TTAAAACACACCACCTACATATTTCACATGAGTGAACCAGGATGAATGAATGGATGTTTGCAAGCACCCCAGGGTCCAGGAGGTGAAGTTATGCAATCTTCAGTTGTTGTTATATCACCCTCTGCCCTTGGCTAAGGGCCAATATCAACAAGTTCTCTTTTTCCCATCTGCCTTAGAGTTTTCCATGAAGATT	0.0209 ratio
AGAACTTGGGTTGCCACAAAGAGATCTGAACTTGTTTTAACTTGTTAAGTCAGTTTTAGAAATACAAAGGTTTAAAGCAGTTTGATGGCTATGTAAATAAGGAAGTTTGCAAAGAACCTGGGTCTACCTCTGGCTATTCAGCAGCTTGGCAAGAGATGACCCGAGTTCTCAGAGTCCCCATCTTTGCATCTGT	0.415 ratio

Block 2
Target: CCNB2, cyclin fold, Cln2 fusion (human)
Method: yeast growth competition, sequencing
Sample: yeast
Notes: weak parent motif
Baseline: not given
Direction: higher = stronger binding
Starting sequence: CDKN1B docking peptide (human); PSACRNLFGPVDH; partner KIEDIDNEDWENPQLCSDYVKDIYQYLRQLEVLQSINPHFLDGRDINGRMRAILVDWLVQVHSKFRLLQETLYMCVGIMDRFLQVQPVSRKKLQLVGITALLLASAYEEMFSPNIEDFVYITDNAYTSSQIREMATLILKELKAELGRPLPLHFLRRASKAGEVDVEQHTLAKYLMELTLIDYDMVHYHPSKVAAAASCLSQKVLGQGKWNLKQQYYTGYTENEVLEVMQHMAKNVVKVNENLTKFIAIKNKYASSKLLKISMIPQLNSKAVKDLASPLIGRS
Change	normalised enrichment score
PSACRNLFGSVDH [P10S]	-0.13
PSACRNLFGPVKH [D12K]	0.495
PSWCRNLFGPVDH [A3W]	0.31
PSACRNGFGPVDH [L7G]	0.155
FSACRNLFGPVDH [P1F]	0.322
PSACRGLFGPVDH [N6G]	0.148
PRACRNLFGPVDH [S2R]	0.266
PSACRPLFGPVDH [N6P]	-0.428
PSACRNLGGPVDH [F8G]	-0.0664
PSACRNLFGTVDH [P10T]	0.0485
PSARRNLFGPVDH [C4R]	0.693
PSACRNKFGPVDH [L7K]	0.176
PSACKNLFGPVDH [R5K]	-0.00831
PSACRNAFGPVDH [L7A]	0.183
PSACRNLFDPVDH [G9D]	0.315
PSACRNLFMPVDH [G9M]	-0.00204
PSACRNLFGPPDH [V11P]	0.777

Block 3
Target: Protein max, full length (MAX, Homo sapiens, UniProt P61244-2, residues 1-151)
Method: protein-binding microarray
Molecule type: double-stranded DNA, one strand shown
Sample: in vitro
Concentration: not given
Notes: k-mer, scored over probes, only values ≥0.25
Direction: higher = stronger binding
Strand	E-score
ATGTGGAG	0.277
ACGAGGTA	0.335
ATGGCACG	0.397
ATCCCACG	0.347
GCGGGCAC	0.275
CACGAGAC	0.416
CGCAGCAC	0.251
CGTGCGTC	0.41
ACATGTGG	0.481
ACATGAGA	0.329
CACGAGAG	0.32
CATGGGTA	0.32
ACATGCAC	0.391
CCCTACCA	0.282
CATGGTGA	0.328
CGTGCATA	0.351
CACGCCTC	0.368
GCGTGGCC	0.427
CGTGGCCA	0.376
ATCGTGCG	0.288
TGCAGCCA	0.276

Block 4
Target: RNA binding protein fox-1 homolog 2, RRM domain, GST-SBP tag (RBFOX2, Homo sapiens, UniProt O43251-10, residues 100-194)
Method: RNA Bind-n-Seq
Molecule type: RNA
Sample: in vitro
Concentration: 365 nM
Notes: natural RNA segment, single round, ends assumed
Baseline: no-protein control
Direction: higher = stronger binding
Constant ends, left off below: GGGAGUUCUACAGUCCGACGAUC … UGGAAUUCUCGGGUGCCAA
Construct (chain): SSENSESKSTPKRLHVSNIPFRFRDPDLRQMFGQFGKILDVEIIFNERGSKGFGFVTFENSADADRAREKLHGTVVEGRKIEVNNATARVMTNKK
Strand	RBNS enrichment (R)
ACCUAAAACUGUUGAGCAGGUUGCGAUGAGGAGCACAGGGCUAGCUGCAGAGCUGGAUCCUCAGGAGGAUAGCGAAUUAUUUUCAACCCUGGAAUAGAAACCACACACUG	0.347
AAGUUUAAGAUUUGCCAUAUGACGACGUGGUGACCGGGAAGUCCAGAGUCGGCAAGCAGGUGCCAGAUUUUCUAUCCCAUCAGCCAGUGCUUCACCAGGUGCAGGCUGCU	0.541
UGGACAGGAAGAUGGCAGAAGCUACGCUAUUGUCAUAGCAAAAGAGCUUUCUAUUUGGCACAUACCAGGGGUCCAGCUACUGGAAGGGCUCUACCCCAAACUCUGAGGAC	0.368
CGAGCCCAGAGUGUUCAAAGGCGCCAAGGUCCUGGCAGGUUACAAAGGGUUUUGUGUUGGCAUGAGUUCUGGAACACAUCUCAGGCUGUCAGAGCAAAGUGAUCCAGAAU	0.896
ACCAAUGAAAGACAGUACAUGUAAUAAUAUUUUCCUCAGUACAAUUUUGCUGGCCUUAACUGGUAUCAAACGCUGUCAUUGAGAUGUUUUCAAAGAACAUUGAGUUGUAU	0.346
UUUUACCUUUGUUCCUUUUGCUCUGAUAGACAAAAUCAGUUUAGGACUAUUAAAGAAUGUUUUGGAAUAAACUGUCUUUUUCCUCAAUGAAUGGGAUGUCUAAUGUAUUU	0.997
AUGGUACCAGAGUGCUCAGAAACUCAAGAUAGGAUAUGCCUCACCCUCAGCUACUCCUUGUUUUAAAGUUCAGCUCUUUGAGUAACUUCUUCAAUUUCUUUCAGGACACU	0.336
GUGUGUAUAUGUAAUUUUCUUAAUGUCUUAAGAAAUCUGGCUAUAUAAGUUCCACUGUACAAUGUCCUUUUCAGGUGGAAUUUUCUCUAUUGCUUUGAUAAACAGAGUUG	0.646
AAGUAACACAGAUUCCCUGAUUUUUUUUUUUAAAAAACUAAAAAGAUCUCUAAACCUUCUUACAUAGAAAGCAUCCCUAUAAUCUAUAGGGAGAGGCGGGGAAUAAAGUG	0.474
CAGCCAGGUUCUUCAGGUGCUUCUUAAUCAGCCCCUCUGCUCCAGAUGGACCUUUCCCUCCAUGUAGCUUUUCCUCAGAGUCGAUGAGAAGUGAAUGUUGUCUUUGGUCA	0.365
AGGCUCUGAGGAUGAUGAGCAGGAGUUGUUUGAGCCCACAGUGCCUCACUCAGCCUCCUCAGAACACAAGAUGGCCCGCAGAGGACGGCAGUUACCAGCCUCCUUCCUGC	0.354
CUAAAAGAUUAUUUAAUUCCAGAUUGGAAAUGACAUUUUAGUUUAUCAGAUUGGUAACUUAUCGCCUGUUGUCCAGAUUGGCACGAACCUUUUCUUCCACUUAAUUAUUU	0.551

Block 5
Target: Interferon regulatory factor 5, full length, phosphomimetic (IRF5, Homo sapiens, UniProt Q13568-2, residues 1-514, K96S/S451D/S453D/S456D/S462D)
Method: protein-binding microarray
Molecule type: double-stranded DNA, one strand shown
Sample: in vitro
Concentration: 250 nM
Notes: 60-bp whole probe
Added: salmon DNA 0.4 mg/ml
Baseline: random background probes
Direction: higher = stronger binding
Constant ends, left off below: GCCTAGCAC … GTCTTGATTCGCTTGACGCTGCTG
Strand	log fluorescence [z-score]
CTAGGTTTCGGGTTTCGGTTAGTGCTA	9.87
TTAGGTTTCGACTTTCGGTTCGTGCTA	10.4
TTAGGTATCCTTCTCGTTTAGTGCTAG	0.546
TTCGGTATCCTACTGCTTTAGTGCTAG	0.766
GACGGACTGGGGTTTCGGAACGTGCTA	1.33
TCATCTTTCCTTACTTCACTGTGCTAG	1.23
GACGAACTGGGGACCGGAGACGTGCTA	-0.482
TCAGTTCTAAATATCTTACTGTGCTAG	0.487
GACGATTCCAGTTTCGAAACGTGCTAG	6.42
GTTCTTATCCTTCCCCTCTAGTGCTAG	0.343
TTAGATTTCACACTGGATTAGTGCTAG	0.974
TTAGGTCGCCTTCTCCTTTAGTGCTAG	-0.108
TCAGGTATTTTTCTAAAACTGTGCTAG	0.292
TTAGGACTGGGGTATCGGGTAGTGCTA	0.543
TTACGTATCGACTTTCGGTTAGTGCTA	10.4
TTAGACATCAGTTTCGATTAGTGCTAG	9.52
TTAGATTTCAGTTCCGATCAGTGCTAG	2.75
TCGCACACATACGGCTTCTCGTGCTAG	0.0426
ATAGGACTGGGTTTCGGTTAGTGCTAG	7.82
TTAGATACCGGGTTTCGATTAGTGCTA	6.46
CTAGGTTTCGGTCTCGGTTAGTGCTAG	9.97
TACGATATCAGTCTCGAGACGTGCTAG	1.38
TAAGATTTCAGTATCGATTAGTGCTAG	8.42

Further values, each from its own experiment
Substance	target or system	test	system	setting	scale	endpoint	value
SURF6 (Homo sapiens, UniProt O75683)	MYBBP1A (Homo sapiens, UniProt Q9BQG0)	cross-linking MS	cell fractions	added: DSSO		cross-linked residues	K16 to K263
PhoQ, residues 284 288 289 292 302 303 ALVSVA	PhoP, residues 12 14 15 18 19 LHATL (Escherichia coli, UniProt P23836)	Sort-seq, measured: YFP reporter	E. coli	PhoQ-PhoP variant library, added: 10 µM Mg2+	baseline: high Mg2+ state, higher = stronger signaling	fold induction	4.59
MBD3 (Homo sapiens, UniProt O95983)	GATAD2B (Homo sapiens, UniProt Q8WXI9)	cross-linking MS	cell fractions	added: DSSO		cross-linked residues	K92 to K193
BNIP1 (Homo sapiens, UniProt Q12981)	RINT1 (Homo sapiens, UniProt Q6NUQ1)	cross-linking MS		hits only		interaction screen	cross-linked
YWHAQ (Homo sapiens, UniProt P27348)	YWHAB (Homo sapiens, UniProt P31946)	cross-linking MS		hits only		interaction screen	cross-linked

Excerpt of the above (block 5):
Strand	log fluorescence [z-score]
TACGATATCAGTCTCGAGACGTGCTAG	1.38
TTCGGTATCCTACTGCTTTAGTGCTAG	0.766
CTAGGTTTCGGGTTTCGGTTAGTGCTA	9.87
TTACGTATCGACTTTCGGTTAGTGCTA	10.4
TTAGATTTCAGTTCCGATCAGTGCTAG	2.75
TTAGATACCGGGTTTCGATTAGTGCTA	6.46
GACGGACTGGGGTTTCGGAACGTGCTA	1.33
TTAGGTCGCCTTCTCCTTTAGTGCTAG	-0.108
